# Published values of several laboratories.
# Each numbered part is a random draw from the data of one study; scales do not carry over between parts. Several values in a cell are separate wells, animals, samples, runs or records.
# Sequence of UniProt P35590 (whole entry, looked up): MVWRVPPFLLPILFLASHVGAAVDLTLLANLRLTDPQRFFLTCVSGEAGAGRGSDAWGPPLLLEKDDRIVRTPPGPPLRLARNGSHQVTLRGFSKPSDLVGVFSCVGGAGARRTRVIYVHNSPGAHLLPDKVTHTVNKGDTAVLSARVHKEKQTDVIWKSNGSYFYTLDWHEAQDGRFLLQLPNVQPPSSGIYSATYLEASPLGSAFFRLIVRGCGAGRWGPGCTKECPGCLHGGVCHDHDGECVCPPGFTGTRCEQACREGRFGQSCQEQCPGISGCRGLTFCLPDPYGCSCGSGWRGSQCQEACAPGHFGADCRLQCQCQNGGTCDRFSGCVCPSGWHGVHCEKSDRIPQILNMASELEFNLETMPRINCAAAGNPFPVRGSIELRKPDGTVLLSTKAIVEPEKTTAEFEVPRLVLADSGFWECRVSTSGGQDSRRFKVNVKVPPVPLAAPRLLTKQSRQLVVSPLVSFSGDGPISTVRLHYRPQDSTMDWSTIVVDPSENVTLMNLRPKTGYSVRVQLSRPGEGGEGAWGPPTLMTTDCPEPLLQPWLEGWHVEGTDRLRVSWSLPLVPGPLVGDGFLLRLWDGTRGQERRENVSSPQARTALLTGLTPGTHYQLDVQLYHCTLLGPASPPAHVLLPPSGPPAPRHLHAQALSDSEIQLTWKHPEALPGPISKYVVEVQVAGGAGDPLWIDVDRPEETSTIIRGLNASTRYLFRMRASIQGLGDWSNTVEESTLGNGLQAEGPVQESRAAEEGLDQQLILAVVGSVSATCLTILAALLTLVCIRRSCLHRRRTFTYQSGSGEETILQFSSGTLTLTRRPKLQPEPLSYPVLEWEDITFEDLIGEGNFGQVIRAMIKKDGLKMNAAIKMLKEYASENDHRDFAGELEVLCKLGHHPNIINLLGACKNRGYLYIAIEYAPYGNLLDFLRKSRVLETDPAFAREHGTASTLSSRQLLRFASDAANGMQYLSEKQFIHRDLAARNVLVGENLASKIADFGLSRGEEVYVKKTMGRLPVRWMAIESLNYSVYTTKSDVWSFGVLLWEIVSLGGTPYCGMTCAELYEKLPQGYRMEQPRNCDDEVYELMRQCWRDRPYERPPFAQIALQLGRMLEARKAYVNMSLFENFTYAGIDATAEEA
# Sequence of UniProt Q04771 (whole entry, looked up): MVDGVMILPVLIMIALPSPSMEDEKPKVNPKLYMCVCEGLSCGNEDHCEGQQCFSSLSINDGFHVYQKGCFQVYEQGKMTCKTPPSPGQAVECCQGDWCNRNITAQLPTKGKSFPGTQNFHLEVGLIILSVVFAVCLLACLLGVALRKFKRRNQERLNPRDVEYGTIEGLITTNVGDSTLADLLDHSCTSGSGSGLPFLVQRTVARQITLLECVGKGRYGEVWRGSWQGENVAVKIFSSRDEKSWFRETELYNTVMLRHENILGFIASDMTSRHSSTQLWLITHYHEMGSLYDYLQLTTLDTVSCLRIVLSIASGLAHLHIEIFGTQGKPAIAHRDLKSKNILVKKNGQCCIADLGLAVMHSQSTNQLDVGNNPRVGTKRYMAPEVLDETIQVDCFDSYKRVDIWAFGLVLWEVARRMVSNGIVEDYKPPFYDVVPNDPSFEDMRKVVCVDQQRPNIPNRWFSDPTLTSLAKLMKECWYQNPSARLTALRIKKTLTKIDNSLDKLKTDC
# Sequence of UniProt Q04912 (whole entry, looked up): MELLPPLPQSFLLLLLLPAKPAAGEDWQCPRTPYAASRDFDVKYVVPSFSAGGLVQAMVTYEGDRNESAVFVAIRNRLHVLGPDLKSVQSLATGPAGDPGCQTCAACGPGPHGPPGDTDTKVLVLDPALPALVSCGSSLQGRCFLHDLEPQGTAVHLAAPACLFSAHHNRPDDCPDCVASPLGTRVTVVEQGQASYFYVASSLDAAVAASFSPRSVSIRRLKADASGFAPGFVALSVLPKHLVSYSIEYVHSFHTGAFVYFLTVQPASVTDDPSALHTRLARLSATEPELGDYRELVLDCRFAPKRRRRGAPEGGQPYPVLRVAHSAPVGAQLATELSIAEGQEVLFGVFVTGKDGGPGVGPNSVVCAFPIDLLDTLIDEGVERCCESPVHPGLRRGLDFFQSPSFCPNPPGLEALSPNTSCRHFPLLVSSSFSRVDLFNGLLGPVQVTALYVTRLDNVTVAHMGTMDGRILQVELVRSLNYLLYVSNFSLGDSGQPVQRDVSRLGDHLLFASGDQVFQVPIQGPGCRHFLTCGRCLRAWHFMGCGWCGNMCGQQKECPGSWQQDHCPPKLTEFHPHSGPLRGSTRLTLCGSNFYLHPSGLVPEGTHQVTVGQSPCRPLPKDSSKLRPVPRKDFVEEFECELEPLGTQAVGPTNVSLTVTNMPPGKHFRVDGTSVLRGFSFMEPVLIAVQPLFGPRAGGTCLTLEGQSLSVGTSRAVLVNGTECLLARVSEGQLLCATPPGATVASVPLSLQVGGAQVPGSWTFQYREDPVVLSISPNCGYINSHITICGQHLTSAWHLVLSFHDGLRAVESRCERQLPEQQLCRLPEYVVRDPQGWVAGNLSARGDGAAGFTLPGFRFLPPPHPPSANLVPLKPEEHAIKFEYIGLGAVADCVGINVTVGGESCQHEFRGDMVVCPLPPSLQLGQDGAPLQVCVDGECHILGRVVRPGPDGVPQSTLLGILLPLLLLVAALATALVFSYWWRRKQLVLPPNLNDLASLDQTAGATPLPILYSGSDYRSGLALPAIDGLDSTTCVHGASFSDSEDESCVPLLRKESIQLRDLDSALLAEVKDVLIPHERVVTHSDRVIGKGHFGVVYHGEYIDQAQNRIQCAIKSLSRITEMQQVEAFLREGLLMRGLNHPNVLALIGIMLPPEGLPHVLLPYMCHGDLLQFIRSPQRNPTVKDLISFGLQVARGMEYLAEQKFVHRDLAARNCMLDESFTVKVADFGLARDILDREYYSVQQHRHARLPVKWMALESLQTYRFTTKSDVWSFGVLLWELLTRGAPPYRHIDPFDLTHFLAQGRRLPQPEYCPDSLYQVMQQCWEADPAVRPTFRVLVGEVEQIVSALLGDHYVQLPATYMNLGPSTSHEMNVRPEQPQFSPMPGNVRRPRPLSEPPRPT
# Sequence of UniProt Q13163 (whole entry, looked up): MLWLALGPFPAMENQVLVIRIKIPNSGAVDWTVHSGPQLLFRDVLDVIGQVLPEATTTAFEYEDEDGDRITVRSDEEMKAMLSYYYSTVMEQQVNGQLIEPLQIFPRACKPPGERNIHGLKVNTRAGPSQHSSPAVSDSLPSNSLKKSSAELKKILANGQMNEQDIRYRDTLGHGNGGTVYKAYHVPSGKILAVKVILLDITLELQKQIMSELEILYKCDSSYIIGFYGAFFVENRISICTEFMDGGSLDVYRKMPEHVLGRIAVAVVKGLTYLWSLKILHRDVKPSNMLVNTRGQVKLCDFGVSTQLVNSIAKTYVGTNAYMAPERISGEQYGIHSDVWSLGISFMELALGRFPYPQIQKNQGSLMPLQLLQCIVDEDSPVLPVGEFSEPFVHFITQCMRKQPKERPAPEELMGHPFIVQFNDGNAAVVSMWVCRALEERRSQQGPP
# Sequence of UniProt P27448 (whole entry, looked up): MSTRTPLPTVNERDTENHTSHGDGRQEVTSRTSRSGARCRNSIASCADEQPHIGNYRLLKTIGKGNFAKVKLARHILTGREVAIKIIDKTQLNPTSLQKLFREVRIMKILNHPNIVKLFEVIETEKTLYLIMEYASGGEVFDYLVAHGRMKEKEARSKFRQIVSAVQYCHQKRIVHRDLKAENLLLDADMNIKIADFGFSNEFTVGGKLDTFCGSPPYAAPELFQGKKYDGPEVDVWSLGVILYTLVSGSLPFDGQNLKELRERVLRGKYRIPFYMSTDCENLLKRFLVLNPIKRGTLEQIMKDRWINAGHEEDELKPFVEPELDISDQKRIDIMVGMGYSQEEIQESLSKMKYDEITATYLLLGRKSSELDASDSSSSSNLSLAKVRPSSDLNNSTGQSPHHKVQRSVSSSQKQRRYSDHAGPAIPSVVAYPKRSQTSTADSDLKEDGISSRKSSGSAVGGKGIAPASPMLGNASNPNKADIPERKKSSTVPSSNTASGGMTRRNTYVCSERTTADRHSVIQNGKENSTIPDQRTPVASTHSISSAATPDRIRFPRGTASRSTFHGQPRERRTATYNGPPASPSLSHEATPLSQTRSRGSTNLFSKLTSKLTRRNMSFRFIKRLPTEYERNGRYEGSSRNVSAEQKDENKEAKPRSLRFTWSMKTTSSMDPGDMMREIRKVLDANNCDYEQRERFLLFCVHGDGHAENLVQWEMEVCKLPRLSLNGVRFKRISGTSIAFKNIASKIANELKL
# Sequence of UniProt Q8WTQ7 (whole entry, looked up): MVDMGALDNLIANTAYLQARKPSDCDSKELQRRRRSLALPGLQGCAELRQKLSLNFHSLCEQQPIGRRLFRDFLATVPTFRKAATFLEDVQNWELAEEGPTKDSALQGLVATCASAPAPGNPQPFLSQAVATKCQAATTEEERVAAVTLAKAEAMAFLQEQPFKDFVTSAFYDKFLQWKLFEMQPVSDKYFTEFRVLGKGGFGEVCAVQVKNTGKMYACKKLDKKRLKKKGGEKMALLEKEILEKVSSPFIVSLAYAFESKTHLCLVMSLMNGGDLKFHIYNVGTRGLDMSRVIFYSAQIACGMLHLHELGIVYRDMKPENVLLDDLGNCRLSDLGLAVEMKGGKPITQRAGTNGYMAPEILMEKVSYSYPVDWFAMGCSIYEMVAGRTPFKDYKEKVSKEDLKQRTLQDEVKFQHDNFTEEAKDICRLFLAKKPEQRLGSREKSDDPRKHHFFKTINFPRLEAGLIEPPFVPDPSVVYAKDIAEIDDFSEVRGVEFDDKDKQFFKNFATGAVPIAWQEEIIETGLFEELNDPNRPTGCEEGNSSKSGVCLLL

# Sample 1
# Cell line: HaCaT
# Concentration: 100 µM
# Time: 36 h
SMILES,viability
Oc1ccc(OCc2ccccc2)cc1,48.8%
COCCCN1CCC(NC(=O)c2cc(Cl)c(N)c3c2OCC3)CC1,75.8%
CC1=C(/C=C/C(C)=C/C=C/C(C)=C/C=C/C=C(C)/C=C/C=C(C)/C=C/C2=C(C)CCCC2(C)C)C(C)(C)CCC1,8.58%
OC[C@H]1O[C@@H](Oc2ccc(O)cc2)[C@H](O)[C@@H](O)[C@@H]1O,110%
NC1C(O)O[C@H](CO)C(O[C@@H]2O[C@H](CO)C(O[C@@H]3O[C@H](CO)[C@@H](O)[C@H](O)[C@H]3N)[C@H](O)C2N)C1O (stereo partly drawn),92.3%
CC(=O)OCC(=O)[C@H]1CC[C@H]2[C@@H]3CCC4=CC(=O)CC[C@]4(C)[C@H]3CC[C@]12C,92.1%
O=C(O)[C@H](O)[C@@H](O)[C@H](O)[C@H](O)CO,83.9%
C=CC(=O)N1CCC[C@@H](n2nc(-c3ccc(Oc4ccccc4)cc3)c3c(N)ncnc32)C1,5.96%

# Sample 2
# Cell line: mouse MPNST tumor cells
# Technique: high-content nuclear imaging
# Measured: cell number
# Concentration: 10 µM
# Time: 12 h
# Setting: mean of 2 replicates
# Relative to: plate mean
# Direction: higher = more cells
SMILES,nuclei count
CCN1C(=O)NC(c2ccccc2)C1=O (stereo not drawn),0.173 z-score
CN(C(=O)CN(CCO)CC(=O)N(C)C(C)(C)Cc1ccccc1)C(C)(C)Cc1ccccc1,1.66 z-score
CC[C@@H](CO)NCCN[C@@H](CC)CO,0.399 z-score and 1.61 z-score
CC1(C)CCC(C)(C)c2cc3cc(-c4cc(C(=O)O)cs4)ccc3cc21,-2.48 z-score
C/C(=C\C(=O)OCCCCCCCCC(=O)O)C[C@@H]1OC[C@H](C[C@@H]2O[C@H]2[C@@H](C)[C@H](C)O)[C@@H](O)[C@H]1O,0.774 z-score
CCN(CC)CCOCCOC(=O)C(CC)(CC)c1ccccc1,3.06 z-score
CCCCOCCOc1nc(-c2ccc(C(=O)O)c(F)c2)sc1C,-0.26 z-score
CN(C)CC(c1ccc(O)cc1)C1(O)CCCCC1 (stereo not drawn),-0.0191 z-score
O=C(O)c1ccc2cc(-c3ccc(O)c(C45CC6CC(CC(C6)C4)C5)c3)ccc2c1,-4.68 z-score
O=[N+]([O-])c1cnc(CO)n1CCO,3.07 z-score
NS(=O)(=O)c1ccc(N2CCN(CC[C@@H]3OCCc4ccccc43)CC2)cc1,4.37 z-score
COc1ccc(S(=O)(=O)Nc2cc(Cl)cc(Cl)c2OC)cc1N1CCNCC1,3.23 z-score

# Sample 3
# Structure (SMILES): CCOCCn1cc(C(=O)Nc2ccc(-n3nc(-c4cccnc4)cc3C(F)(F)F)cn2)ccc1=O
# Read-out: cell-free assay
# Technique: competition with immobilised ligand
# Concentration: 1 µM
target,remaining binding [%]
"MAP3K10 (Homo sapiens, UniProt Q02779)",100
"MAP2K5 (Homo sapiens, UniProt Q13163)",84
"MAP3K13 (Homo sapiens, UniProt O43283)",100
"SIK3 (Homo sapiens, UniProt Q9Y2K2)",92
"Ribosomal protein S6 kinase alpha-5, N-terminal kinase domain (RPS6KA5, Homo sapiens, UniProt O75582)",100
"PHKG2 (Homo sapiens, UniProt P15735)",100
"COQ8B (Homo sapiens, UniProt Q96D53)",100
"ACVR1 (Homo sapiens, UniProt Q04771)",75
"TIE1 (Homo sapiens, UniProt P35590)",81
"MARK3 (Homo sapiens, UniProt P27448)",100
"CSK (Homo sapiens, UniProt P41240)",100
"PRKAA2 (Homo sapiens, UniProt P54646)",100
"CLK3 (Homo sapiens, UniProt P49761)",100
"GRK7 (Homo sapiens, UniProt Q8WTQ7)",88
"MST1R (Homo sapiens, UniProt Q04912)",100
"MAP4K4 (Homo sapiens, UniProt O95819)",91
"RIOK2 (Homo sapiens, UniProt Q9BVS4)",60
"MAPK13 (Homo sapiens, UniProt O15264)",97
"Tyrosine-protein kinase JAK1, JH1 (JAK1, Homo sapiens, UniProt P23458)",100
"NUAK2 (Homo sapiens, UniProt Q9H093)",73
"Tyrosine-protein kinase ABL1, non-phosphorylated (ABL1, Homo sapiens, UniProt P00519, Q252H)",83
"PRKD1 (Homo sapiens, UniProt Q15139)",100
"MAPK7 (Homo sapiens, UniProt Q13164)",86
"STK26 (Homo sapiens, UniProt Q9P289)",81
"PIK3CG (Homo sapiens, UniProt P48736)",100

# Sample 4
# Structure (SMILES): COc1ccc2[nH]c3c4[nH]c5ccc(OC)cc5c4c4c(c3c2c1)C(=O)NC4=O
# Concentration: 1 µM
target,test,conditions,scale,remaining binding [%]
"PRKACA (Homo sapiens, UniProt P17612)",competitive binding,PKAC-alpha,,87
"PTK2 (Homo sapiens, UniProt Q05397)",competitive binding,FAK,,85
"PRKCI (Homo sapiens, UniProt P41743)",competitive binding panel,,relative to: vehicle,63
"EGFR (Homo sapiens, UniProt P00533, L858R/T790M)",competitive binding panel,,relative to: vehicle,35
"ABL1 (Homo sapiens, UniProt P00519, E255K)",competitive binding panel,,relative to: vehicle,64
"TIE1 (Homo sapiens, UniProt P35590)",competitive binding panel,,relative to: vehicle,100
"KIT (Homo sapiens, UniProt P10721, V559D/V654A)",competitive binding panel,,relative to: vehicle,66
"PRKD2 (Homo sapiens, UniProt Q9BZL6)",competitive binding panel,,relative to: vehicle,62
"RET (Homo sapiens, UniProt P07949)",competitive binding panel,,relative to: vehicle,41

# Some of these lines once more (sample 2):
SMILES,nuclei count
O=C(O)c1ccc2cc(-c3ccc(O)c(C45CC6CC(CC(C6)C4)C5)c3)ccc2c1,-4.68 z-score
O=[N+]([O-])c1cnc(CO)n1CCO,3.07 z-score
COc1ccc(S(=O)(=O)Nc2cc(Cl)cc(Cl)c2OC)cc1N1CCNCC1,3.23 z-score
CCN(CC)CCOCCOC(=O)C(CC)(CC)c1ccccc1,3.06 z-score
CCCCOCCOc1nc(-c2ccc(C(=O)O)c(F)c2)sc1C,-0.26 z-score
NS(=O)(=O)c1ccc(N2CCN(CC[C@@H]3OCCc4ccccc43)CC2)cc1,4.37 z-score
